Published values pooled from the literature.
A part holds a random share of what one study measured. “And” joins repeats or separate records; there may be more than shown.
Sequence of UniProt P00519 (whole entry, looked up): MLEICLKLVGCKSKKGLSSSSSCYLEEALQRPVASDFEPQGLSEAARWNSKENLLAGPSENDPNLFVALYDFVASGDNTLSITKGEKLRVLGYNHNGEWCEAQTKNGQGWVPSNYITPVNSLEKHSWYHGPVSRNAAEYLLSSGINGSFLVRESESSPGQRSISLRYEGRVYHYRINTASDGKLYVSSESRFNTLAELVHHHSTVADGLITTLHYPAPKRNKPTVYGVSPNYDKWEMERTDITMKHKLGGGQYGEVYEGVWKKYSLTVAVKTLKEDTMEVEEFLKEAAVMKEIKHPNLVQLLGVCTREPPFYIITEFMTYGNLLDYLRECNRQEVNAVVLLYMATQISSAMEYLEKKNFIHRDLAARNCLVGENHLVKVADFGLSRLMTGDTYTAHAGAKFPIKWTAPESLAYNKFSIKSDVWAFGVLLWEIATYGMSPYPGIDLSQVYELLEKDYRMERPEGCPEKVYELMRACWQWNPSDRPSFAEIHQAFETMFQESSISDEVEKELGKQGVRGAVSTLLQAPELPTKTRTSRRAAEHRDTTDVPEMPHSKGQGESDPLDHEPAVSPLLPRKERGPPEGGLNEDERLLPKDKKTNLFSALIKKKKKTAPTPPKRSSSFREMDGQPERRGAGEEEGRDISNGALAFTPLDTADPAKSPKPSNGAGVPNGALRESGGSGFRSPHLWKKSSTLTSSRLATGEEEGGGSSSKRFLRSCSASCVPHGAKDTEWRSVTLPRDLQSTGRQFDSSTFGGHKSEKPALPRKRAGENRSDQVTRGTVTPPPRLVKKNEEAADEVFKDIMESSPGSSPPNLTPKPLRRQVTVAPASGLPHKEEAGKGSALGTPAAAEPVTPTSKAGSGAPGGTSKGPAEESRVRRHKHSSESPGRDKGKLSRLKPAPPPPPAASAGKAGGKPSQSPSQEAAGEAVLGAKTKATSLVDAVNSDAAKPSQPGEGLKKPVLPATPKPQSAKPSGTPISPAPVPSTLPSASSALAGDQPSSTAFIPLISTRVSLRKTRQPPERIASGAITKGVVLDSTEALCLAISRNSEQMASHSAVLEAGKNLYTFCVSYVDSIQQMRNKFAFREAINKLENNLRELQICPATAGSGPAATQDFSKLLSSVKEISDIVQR
Sequence of UniProt P54762 (whole entry, looked up): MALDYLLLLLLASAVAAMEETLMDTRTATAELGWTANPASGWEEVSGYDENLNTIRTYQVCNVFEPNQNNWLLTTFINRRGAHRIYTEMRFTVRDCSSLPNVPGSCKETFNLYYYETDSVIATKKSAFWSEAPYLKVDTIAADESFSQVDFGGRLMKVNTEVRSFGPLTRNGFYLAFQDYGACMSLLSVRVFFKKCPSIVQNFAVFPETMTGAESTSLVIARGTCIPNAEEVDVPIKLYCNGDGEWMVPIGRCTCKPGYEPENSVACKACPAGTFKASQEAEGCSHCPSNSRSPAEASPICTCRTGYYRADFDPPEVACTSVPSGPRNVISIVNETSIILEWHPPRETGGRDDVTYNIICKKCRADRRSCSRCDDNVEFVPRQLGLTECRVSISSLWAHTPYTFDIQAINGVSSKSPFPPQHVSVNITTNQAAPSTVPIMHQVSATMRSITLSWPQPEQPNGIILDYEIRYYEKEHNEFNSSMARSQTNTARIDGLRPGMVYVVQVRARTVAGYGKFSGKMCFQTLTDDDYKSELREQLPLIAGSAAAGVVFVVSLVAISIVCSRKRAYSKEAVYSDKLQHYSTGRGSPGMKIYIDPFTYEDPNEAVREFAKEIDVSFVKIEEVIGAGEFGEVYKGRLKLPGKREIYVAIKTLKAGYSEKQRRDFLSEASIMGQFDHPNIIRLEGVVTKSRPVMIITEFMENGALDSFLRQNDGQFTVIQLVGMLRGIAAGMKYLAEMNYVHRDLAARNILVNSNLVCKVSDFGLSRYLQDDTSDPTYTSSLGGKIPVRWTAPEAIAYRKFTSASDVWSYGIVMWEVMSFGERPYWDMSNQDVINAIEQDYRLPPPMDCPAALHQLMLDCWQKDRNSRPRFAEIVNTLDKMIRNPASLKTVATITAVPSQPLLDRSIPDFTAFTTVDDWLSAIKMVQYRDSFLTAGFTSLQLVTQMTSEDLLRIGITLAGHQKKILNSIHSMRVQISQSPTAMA
Sequence of UniProt Q7L7X3 (whole entry, looked up): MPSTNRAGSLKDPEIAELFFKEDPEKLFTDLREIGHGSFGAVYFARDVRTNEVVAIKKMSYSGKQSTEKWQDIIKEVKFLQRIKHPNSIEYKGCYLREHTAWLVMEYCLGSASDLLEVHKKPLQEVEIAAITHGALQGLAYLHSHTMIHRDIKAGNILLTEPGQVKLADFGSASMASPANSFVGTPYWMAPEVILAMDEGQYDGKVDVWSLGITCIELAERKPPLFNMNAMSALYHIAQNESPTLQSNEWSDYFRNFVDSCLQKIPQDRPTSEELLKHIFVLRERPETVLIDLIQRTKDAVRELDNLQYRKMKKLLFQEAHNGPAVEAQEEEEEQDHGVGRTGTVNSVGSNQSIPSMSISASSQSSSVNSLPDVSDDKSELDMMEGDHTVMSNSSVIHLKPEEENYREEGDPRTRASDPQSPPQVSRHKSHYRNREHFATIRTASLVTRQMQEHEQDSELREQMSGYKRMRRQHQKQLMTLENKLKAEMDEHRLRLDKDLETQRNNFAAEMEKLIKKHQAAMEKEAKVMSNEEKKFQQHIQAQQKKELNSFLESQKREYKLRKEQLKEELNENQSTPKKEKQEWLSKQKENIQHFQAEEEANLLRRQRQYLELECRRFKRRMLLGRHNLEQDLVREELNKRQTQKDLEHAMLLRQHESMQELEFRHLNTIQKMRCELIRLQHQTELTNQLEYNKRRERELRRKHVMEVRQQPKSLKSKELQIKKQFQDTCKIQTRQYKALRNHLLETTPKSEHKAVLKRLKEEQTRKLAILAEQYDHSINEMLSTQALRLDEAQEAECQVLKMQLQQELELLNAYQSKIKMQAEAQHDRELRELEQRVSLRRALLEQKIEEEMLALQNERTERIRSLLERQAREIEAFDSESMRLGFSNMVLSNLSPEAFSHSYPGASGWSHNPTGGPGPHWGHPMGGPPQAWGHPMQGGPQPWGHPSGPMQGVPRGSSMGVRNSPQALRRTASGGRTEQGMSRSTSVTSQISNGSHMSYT
Sequence of UniProt Q9H2X6 (whole entry, looked up): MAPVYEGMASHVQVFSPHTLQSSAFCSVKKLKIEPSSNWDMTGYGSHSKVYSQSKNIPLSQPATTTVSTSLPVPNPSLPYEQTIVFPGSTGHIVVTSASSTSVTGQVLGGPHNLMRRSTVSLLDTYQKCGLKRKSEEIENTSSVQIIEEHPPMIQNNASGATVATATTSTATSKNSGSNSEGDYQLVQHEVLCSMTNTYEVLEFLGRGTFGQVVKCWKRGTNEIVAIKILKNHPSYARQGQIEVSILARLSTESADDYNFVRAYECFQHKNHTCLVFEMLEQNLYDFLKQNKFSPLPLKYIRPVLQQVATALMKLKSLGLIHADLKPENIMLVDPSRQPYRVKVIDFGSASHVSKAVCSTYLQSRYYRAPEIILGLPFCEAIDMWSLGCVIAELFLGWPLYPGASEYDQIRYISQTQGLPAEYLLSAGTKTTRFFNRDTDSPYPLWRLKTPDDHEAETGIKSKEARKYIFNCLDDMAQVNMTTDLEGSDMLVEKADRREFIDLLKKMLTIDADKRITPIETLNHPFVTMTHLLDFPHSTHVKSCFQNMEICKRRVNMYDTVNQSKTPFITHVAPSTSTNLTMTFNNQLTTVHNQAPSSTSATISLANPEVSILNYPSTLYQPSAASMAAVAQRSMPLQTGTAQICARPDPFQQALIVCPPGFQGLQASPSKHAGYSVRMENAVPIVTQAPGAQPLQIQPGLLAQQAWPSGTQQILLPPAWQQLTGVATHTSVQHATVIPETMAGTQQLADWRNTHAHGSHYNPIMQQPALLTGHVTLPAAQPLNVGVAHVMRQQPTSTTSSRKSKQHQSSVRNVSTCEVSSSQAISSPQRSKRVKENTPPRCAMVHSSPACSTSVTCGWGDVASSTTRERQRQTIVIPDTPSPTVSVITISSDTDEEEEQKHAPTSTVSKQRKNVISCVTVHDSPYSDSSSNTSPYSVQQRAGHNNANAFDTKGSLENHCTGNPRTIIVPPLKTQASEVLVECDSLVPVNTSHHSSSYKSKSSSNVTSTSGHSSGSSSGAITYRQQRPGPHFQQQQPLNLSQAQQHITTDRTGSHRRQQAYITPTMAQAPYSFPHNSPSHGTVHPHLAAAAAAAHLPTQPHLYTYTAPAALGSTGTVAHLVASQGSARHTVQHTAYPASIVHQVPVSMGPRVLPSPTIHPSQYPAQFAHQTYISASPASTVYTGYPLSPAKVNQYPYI
Sequence of UniProt O75716 (whole entry, looked up): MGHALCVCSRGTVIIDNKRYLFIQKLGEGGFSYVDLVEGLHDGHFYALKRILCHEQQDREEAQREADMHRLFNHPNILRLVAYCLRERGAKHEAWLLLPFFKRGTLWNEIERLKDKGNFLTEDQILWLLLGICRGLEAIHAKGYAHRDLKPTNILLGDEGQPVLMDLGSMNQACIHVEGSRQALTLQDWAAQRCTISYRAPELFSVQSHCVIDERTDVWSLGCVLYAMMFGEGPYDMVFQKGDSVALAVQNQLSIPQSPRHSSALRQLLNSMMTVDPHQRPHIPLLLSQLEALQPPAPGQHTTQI

Study 1
Target: Calcium/calmodulin-dependent protein kinase type II subunit alpha (CAMK2A, Homo sapiens, UniProt Q9UQM7)
Sequence of UniProt Q9UQM7 (whole entry, looked up): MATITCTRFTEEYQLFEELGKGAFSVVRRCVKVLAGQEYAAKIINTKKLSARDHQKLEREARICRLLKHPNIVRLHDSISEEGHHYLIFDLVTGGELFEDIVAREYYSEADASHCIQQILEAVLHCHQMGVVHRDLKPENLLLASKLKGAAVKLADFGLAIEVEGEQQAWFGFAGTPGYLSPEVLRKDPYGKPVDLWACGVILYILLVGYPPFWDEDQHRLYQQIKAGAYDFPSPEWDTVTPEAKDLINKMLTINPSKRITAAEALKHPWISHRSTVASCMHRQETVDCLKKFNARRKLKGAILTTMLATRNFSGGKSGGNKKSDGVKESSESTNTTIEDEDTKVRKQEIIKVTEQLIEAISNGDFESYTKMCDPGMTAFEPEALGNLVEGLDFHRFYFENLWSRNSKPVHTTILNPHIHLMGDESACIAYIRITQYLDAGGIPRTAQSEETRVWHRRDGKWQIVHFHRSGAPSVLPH
Read-out: enzyme activity
Mode: inhibitor
Tested at: 10 µM
SMILES	inhibition
COc1cc(O)c2c(=O)c(O)c(-c3ccc(O)c(O)c3)oc2c1	4%
CCCCC/C=C\C/C=C\CCCCCCCC(=O)NCc1ccccc1	-6%
CC(C)(C)NC(=O)[C@H]1CC[C@H]2[C@@H]3CC=C4C=C(C(=O)O)CC[C@]4(C)[C@H]3CC[C@]12C	-7%
CCCCCCCCO	-1%
CCC(=O)C(C)=O	-22%
CCOC(=O)Nc1ccc(NCc2ccc(F)cc2)nc1N	2%
OC[C@H]1O[C@@H](Oc2c[nH]c3ccccc23)[C@H](O)[C@@H](O)[C@@H]1O	-24%

Study 2
Structure (SMILES): NCCNc1ncc(C(N)=O)c(Nc2cccc(C(F)(F)F)c2)n1
Read-out: enzyme activity
Mode: inhibitor
Tested at: 0.5 µM
Relative to: control
target	remaining activity
CAMK2B (Homo sapiens, UniProt Q13554)	89.8%
PHKG1 (Homo sapiens, UniProt Q16816)	75.6%
RPS6KA6 (Homo sapiens, UniProt Q9UK32)	86.7%
EPHB4 (Homo sapiens, UniProt P54760)	85.5%
STK16 (Homo sapiens, UniProt O75716)	95.9%
AXL (Homo sapiens, UniProt P30530)	98.4%
HIPK2 (Homo sapiens, UniProt Q9H2X6)	76.4%
MAPKAPK3 (Homo sapiens, UniProt Q16644)	88.9%
PRKACG (Homo sapiens, UniProt P22612)	97.9%
EPHB1 (Homo sapiens, UniProt P54762)	86.9%
BLK (Homo sapiens, UniProt P51451)	81.2%
TSSK2 (Homo sapiens, UniProt Q96PF2)	79.2%
ABL1 (Homo sapiens, UniProt P00519)	96%
Cyclin-dependent kinase 6, with cyclin D3 (CDK6, Homo sapiens, UniProt Q00534)	100%
SRMS (Homo sapiens, UniProt Q9H3Y6)	105%
STK17A (Homo sapiens, UniProt Q9UEE5)	114%
PDPK1 (Homo sapiens, UniProt O15530)	82.4%
Cyclin-dependent kinase 4, with cyclin D3 (CDK4, Homo sapiens, UniProt P11802)	94.8%
HIPK4 (Homo sapiens, UniProt Q8NE63)	96.4%
MAP4K4 (Homo sapiens, UniProt O95819)	48.4%
WNK3 (Homo sapiens, UniProt Q9BYP7)	98%

Study 3
SMILES: CC(C)n1cnc(-c2ccc(F)cc2)c1-c1ncc(C(=O)Nc2ccc(N3CCN(C)CC3)cc2)[nH]1
Method: phase 2a trial
Host: idiopathic pulmonary fibrosis patients
conditions	patients with coronary arteriosclerosis [%]
60 mg once daily, adverse event grade 2	0
dose not given, adverse event grade 2, all dose arms pooled	0
60 mg once daily, adverse event grade 4	0
60 mg once daily, adverse event grade 5	0
30 mg once daily, adverse event grade 1	0
60 mg once daily, adverse event grade 1	0

Study 4
Cell line: mouse MPNST tumor cells
Method: high-content nuclear imaging
Item: cell number
Tested at: 10 µM
Time: 12 h
Notes: mean of 2 replicates
Relative to: plate mean
Reading: higher = more cells
SMILES	nuclei count
O=C1c2c(O)cccc2Cc2cccc(O)c21	0.511 z-score
NC(=O)c1ccc(N(C(N)=O)c2c(F)cccc2F)nc1-c1ccc(F)cc1F	0.868 z-score
O=C(NCc1ccccn1)Nc1nnc(-c2ccco2)o1	0.69 z-score
C=CC(N)CCC(=O)O (stereo not drawn)	-0.0593 z-score
COc1ccc(C(=O)CC(=O)c2ccc(C(C)(C)C)cc2)cc1	1.18 z-score
CC(=O)Nc1c(I)c(NC(C)=O)c(I)c(C(=O)O)c1I	-0.272 z-score
CC(C)[C@H]1CC[C@H](C(=O)N[C@H](Cc2ccccc2)C(=O)O)CC1	0.41 z-score and 1.12 z-score and 0.702 z-score

Study 5
Structure (SMILES): CC1=C(C#N)C(c2ccc3c(c2)c(NC(=O)c2ccccc2C)nn3C)C(C#N)=C(C)N1
Read-out: cell-free assay
Method: competition with immobilised ligand
Tested at: 1 µM
target	remaining binding [%]
DCLK3 (Homo sapiens, UniProt Q9C098)	89
YES1 (Homo sapiens, UniProt P07947)	88
EGFR (Homo sapiens, UniProt P00533, G719S)	87
TAOK1 (Homo sapiens, UniProt Q7L7X3)	100
PAK2 (Homo sapiens, UniProt Q13177)	100
Tyrosine-protein kinase ABL1, non-phosphorylated (ABL1, Homo sapiens, UniProt P00519)	86
ERBB3 (Homo sapiens, UniProt P21860)	100

Repeated from above (study 4):
SMILES	nuclei count
C=CC(N)CCC(=O)O (stereo not drawn)	-0.0593 z-score
COc1ccc(C(=O)CC(=O)c2ccc(C(C)(C)C)cc2)cc1	1.18 z-score
CC(=O)Nc1c(I)c(NC(C)=O)c(I)c(C(=O)O)c1I	-0.272 z-score
